# Published values from different studies.
# Parts stem from different laboratories: compare values within a part only. “And” joins repeats or separate records; there may be more than shown.

# Study 1 — read-out: enzyme activity; action: inhibitor; concentration: 0.5 µM; relative to: control
# Target: Dual specificity tyrosine-phosphorylation-regulated kinase 1A (DYRK1A, Homo sapiens, UniProt Q13627)
SMILES,remaining activity [%]
N#CC(c1ccnc(NCCc2cccnc2)n1)c1nc2ccccc2s1 (stereo not shown),52.7
O=C(c1ccccc1)c1ccc(N2CCOCC2)cc1O,101
NC(=O)c1cccc(-c2cc(Nc3ccc(OC(F)(F)F)cc3)ncn2)c1,101
CNc1cc2c(Nc3cccc(Br)c3)ncnc2cn1,95.6
O=C1c2ccccc2-c2nc3nnnn3nc21,95
CCN(CC)CCCCN1c2ccccc2Oc2ccc(Cl)cc21,104
CC(C)(C)c1nc2c3cc[nH]c(=O)c3c3cc(F)ccc3c2[nH]1,102
CC(C)N(CCC(=O)c1ccc2ccccc2c1)Cc1ccccc1,105
O=Nc1c(-c2c(O)[nH]c3ccccc23)[nH]c2ccccc12,105
Nc1nc(Nc2ccc(S(N)(=O)=O)cc2)nn1C(=S)Nc1c(F)cccc1F,15.3
N#C/C(=C(/N)SC1C=CC=CC1)c1cccc(C(O)c2ccncc2)c1 (stereo not shown),93.8

# Study 2 — method: protein-binding microarray; molecule type: hairpin DNA; medium: in vitro; concentration: not given; relative to: not given; direction: higher = stronger binding
# Target: Runt-related transcription factor 1, full length (RUNX1, Homo sapiens, UniProt Q01196-8, residues 1-480)
# Notes: whole hairpin DNA, median over replicate spots
Oligonucleotide,median fluorescence
GAGGCCTATTGCGGTTGGCCTCCTGGCCAACCGCAATAGGCCTCACACTC,5540 a.u.
GAGGCCTGTCGCGGTTGGCCTCCTGGCCAACCGCGACAGGCCTCACACTC (5mC at 32),1800 a.u.
CTCAGTCGTGTGGGCTGGACTCCTGTCCAGCCCACACGACTGAGACACTC (5mC at 7),1930 a.u.
CTCAGTTCTGTCGGCTGGACTCCTGTCCAGCCGACAGAACTGAGACACTC (5mC at 12),1730 a.u.
CTCAGTTCTGTGGGCTGGACTCCTGTCCAGCCCACAGAACTGAGACACTC (5mC at 8),2080 a.u.
GAGGCCTGTCGCGTTTGGCCTCCTGGCCAAACGCGACAGGCCTCACACTC,1640 a.u.
GAGGCCTGTTGTGGTTGGCCTCCTGGCCAACCACAACAGGCCTCACACTC (5mC at 37),3260 a.u.
GAGGCCTGTCGCGGTTGGCCTCCTGGCCAACCGCGACAGGCCTCACACTC (5mC at 28),2790 a.u.

# Mixed results
SMILES,tested on,assay,test system,setting,scale,measurement,result
"COc1ccc2c(c1)O[C@H](c1ccc(OC)c(OC)c1)C[C@@H]2NC(=O)C1(c2ccc3c(c2)OC(F)(F)O3)CC1 (single isomer, unassigned)",sample J colorectal tumour organoid,,,1 µM,relative to: DMSO,viability,91.4% and 101%
CC(C)n1cnc(-c2ccc(F)cc2)c1-c1ncc(C(=O)Nc2ccc(N3CCN(C)CC3)cc2)[nH]1,,phase 2a trial,idiopathic pulmonary fibrosis patients,"dose not given, grade 1, arms pooled",,patients with CRP increased,2%
CO[C@@H](C)c1c(Nc2ccc([C@@H](N(C)C(=O)C3CCS(=O)(=O)CC3)C(F)(F)F)cc2)cnc2cc(Cl)nn12,normal organoid sample G,CellTiter-Glo,"human, normal-adjacent epithelium",1 µM,relative to: DMSO,viability,83.6%

# For quick reference, copied from above (study 2):
Oligonucleotide,median fluorescence
CTCAGTTCTGTGGGCTGGACTCCTGTCCAGCCCACAGAACTGAGACACTC (5mC at 8),2080 a.u.
CTCAGTTCTGTCGGCTGGACTCCTGTCCAGCCGACAGAACTGAGACACTC (5mC at 12),1730 a.u.
GAGGCCTGTCGCGGTTGGCCTCCTGGCCAACCGCGACAGGCCTCACACTC (5mC at 32),1800 a.u.
